Results collected from several papers.
HCRTR1: Orexin/Hypocretin receptor type 1 (HCRTR1, Homo sapiens, UniProt O43613)
Sequence of UniProt O43613 (whole entry, looked up): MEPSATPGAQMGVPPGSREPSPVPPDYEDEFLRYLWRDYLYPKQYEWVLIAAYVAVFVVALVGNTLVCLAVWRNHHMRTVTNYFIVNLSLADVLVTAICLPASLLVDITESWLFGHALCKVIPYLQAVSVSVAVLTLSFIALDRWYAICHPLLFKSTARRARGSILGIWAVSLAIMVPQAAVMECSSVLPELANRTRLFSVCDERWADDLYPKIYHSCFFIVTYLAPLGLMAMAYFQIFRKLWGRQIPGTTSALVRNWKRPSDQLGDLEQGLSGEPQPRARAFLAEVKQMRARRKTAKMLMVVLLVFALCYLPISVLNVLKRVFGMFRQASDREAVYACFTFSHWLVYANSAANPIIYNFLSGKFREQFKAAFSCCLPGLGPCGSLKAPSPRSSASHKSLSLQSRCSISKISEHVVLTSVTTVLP

methyl-β-cyclodextrin
inhibition (MDCK; nanoparticle endocytosis; 10 mM, 30 min pretreatment): 68.9%

O=C(NC(=S)Nc1ccc(-c2nc3ccccc3o2)cc1)c1ccc2ccccc2c1
inhibition (SW480 cells overexpressing claudin-1; anchorage-independent growth, soft agar colony formation; 25 µM; reference: untreated): 65 to 70%

CCn1c(-c2ccc(Br)cc2)cs/c1=N/N=C(\C)c1ccccn1
inhibition (MCF7; cell growth or viability, SRB; 100 µg/mL, 48 h): 47.8%

CCN(CC)CC1CCN(c2ncc3ncnc(Nc4ccc(F)c(Cl)c4)c3n2)CC1.Cl.Cl
inhibition (A549 EGFR reporter cells; EGFR-induced granule formation; 10 µM, together with: 500 nM EGF; negative means activation): 98%

CC(C)Oc1ccc(S(=O)(=O)c2ccc(Oc3cc(OCC(N)=O)c(C(=O)C(Cl)Cl)cc3[N+](=O)[O-])cc2)cc1
inhibition (NCI-H1650; cell growth or viability, MTT; 2.5 µM): > 95%

COc1cc2c(cc1OC)C(Cc1ccc(OC)c(N(C)C)c1)N(CC(=O)NCc1ccccc1)CC2 (centres unmarked)
Kb (HCRTR1; calcium signal, antagonist, fluorescence): 0.0127 µM

C/C(=N\N=C1/NC(=O)C(C)S1)c1ccccn1 (centres unmarked)
inhibition (MCF7; cell growth, SRB; 100 µg/mL, 48 h): > 70%

COc1ccccc1-c1cc(-c2ccc(-c3ccc(Br)cc3)cc2)nc(N)c1C#N
inhibition (HT-29; cell growth or viability; 50 µM): 75%

O=C(Nc1ccc(OS(=O)(=O)Cc2ccccc2)cc1)c1ccccc1
inhibition (HeLa; cell growth or viability, MTT; 100 µM, 24 h): > 50%

COc1cccc2c1C(=O)c1c(O)c3c(c(O)c1C2=O)C[C@@](O)(C(=O)CO)C[C@@H]3O[C@H]1C[C@H](NC(=O)[C@@H]2CCCN2C(=O)CN)[C@H](O)[C@H](C)O1
AUC (mouse, E0771 tumour-bearing, plasma; intravenous, 92 µmol/kg PhAc-ALGP-Dox): 1490 nM·h

Cc1ccc(C(=O)Nc2ccc(OS(=O)(=O)Cc3ccccc3)cc2)cc1
inhibition (HeLa; cell growth or viability, MTT; 100 µM, 24 h): 38.5%

ANKHYF
inhibition (washed human platelets; platelet aggregation; peptide, human; concentration not given, 1 min preincubation, together with: collagen 5 µg/mL): 0%

Cc1ccc(C(=O)Nc2ccc(OS(=O)(=O)c3ccccc3F)cc2)cc1
inhibition (HeLa; cell growth or viability, MTT; 100 µM, 24 h): 14.3%

N#Cc1c(-c2ccccc2Cl)cc(-c2ccccc2Br)[nH]c1=O
inhibition (HT-29; cell growth or viability; 50 µM): 81%

COc1cc2c(cc1OC)C(Cc1ccc(OS(=O)(=O)c3ccccc3)c(OC)c1)N(CC(=O)NCc1ccccc1)CC2 (centres unmarked)
Kb (HCRTR1; calcium signal, antagonist, fluorescence): 1.82 µM

CCCCc1ccc(S(=O)(=O)Oc2ccc(NC(=O)c3ccc(C)cc3)cc2)cc1
inhibition (HeLa; cell growth or viability, MTT; 100 µM, 24 h): 19.1%

C/C(=N\N=C1/NC(=O)/C(=C\c2ccc(F)cc2)S1)c1ccccn1
inhibition (MCF7; cell growth or viability, SRB; 100 µg/mL, 48 h): 66.2%

For quick reference, copied from above:
COc1ccccc1-c1cc(-c2ccc(-c3ccc(Br)cc3)cc2)nc(N)c1C#N
inhibition (HT-29; cell growth or viability; 50 µM): 75%
